Measured values pooled from the literature.
Lines come from different studies, so protocols differ. Values joined by “and” are separate records of one study, mostly repeats; a detail may differ. Numbers after ± are the reported error.
NNMT SAM-bound: Nicotinamide N-methyltransferase, SAM-bound (NNMT, Homo sapiens, UniProt P40261)
Chain of UniProt P40261 (whole entry, looked up): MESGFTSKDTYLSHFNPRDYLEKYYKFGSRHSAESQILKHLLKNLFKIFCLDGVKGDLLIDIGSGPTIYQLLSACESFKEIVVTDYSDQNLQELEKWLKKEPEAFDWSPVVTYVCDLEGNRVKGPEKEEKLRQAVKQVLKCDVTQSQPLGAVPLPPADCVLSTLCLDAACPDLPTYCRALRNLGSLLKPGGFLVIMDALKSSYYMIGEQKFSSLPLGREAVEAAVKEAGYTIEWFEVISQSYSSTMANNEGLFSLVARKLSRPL
Chain of UniProt Q13188 (whole entry, looked up): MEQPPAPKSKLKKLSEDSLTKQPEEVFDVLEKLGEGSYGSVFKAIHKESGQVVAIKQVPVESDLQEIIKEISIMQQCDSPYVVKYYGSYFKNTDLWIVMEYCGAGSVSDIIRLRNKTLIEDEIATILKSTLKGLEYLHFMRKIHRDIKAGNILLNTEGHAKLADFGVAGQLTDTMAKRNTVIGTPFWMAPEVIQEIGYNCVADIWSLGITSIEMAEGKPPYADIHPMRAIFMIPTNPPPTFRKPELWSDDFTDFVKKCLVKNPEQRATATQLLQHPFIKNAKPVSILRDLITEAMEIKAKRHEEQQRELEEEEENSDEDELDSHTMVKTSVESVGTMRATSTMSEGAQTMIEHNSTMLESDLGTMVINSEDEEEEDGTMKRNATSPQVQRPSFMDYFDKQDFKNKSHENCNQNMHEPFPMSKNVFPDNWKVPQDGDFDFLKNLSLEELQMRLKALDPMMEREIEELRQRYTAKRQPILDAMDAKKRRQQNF
Chain of UniProt P23458 (whole entry, looked up): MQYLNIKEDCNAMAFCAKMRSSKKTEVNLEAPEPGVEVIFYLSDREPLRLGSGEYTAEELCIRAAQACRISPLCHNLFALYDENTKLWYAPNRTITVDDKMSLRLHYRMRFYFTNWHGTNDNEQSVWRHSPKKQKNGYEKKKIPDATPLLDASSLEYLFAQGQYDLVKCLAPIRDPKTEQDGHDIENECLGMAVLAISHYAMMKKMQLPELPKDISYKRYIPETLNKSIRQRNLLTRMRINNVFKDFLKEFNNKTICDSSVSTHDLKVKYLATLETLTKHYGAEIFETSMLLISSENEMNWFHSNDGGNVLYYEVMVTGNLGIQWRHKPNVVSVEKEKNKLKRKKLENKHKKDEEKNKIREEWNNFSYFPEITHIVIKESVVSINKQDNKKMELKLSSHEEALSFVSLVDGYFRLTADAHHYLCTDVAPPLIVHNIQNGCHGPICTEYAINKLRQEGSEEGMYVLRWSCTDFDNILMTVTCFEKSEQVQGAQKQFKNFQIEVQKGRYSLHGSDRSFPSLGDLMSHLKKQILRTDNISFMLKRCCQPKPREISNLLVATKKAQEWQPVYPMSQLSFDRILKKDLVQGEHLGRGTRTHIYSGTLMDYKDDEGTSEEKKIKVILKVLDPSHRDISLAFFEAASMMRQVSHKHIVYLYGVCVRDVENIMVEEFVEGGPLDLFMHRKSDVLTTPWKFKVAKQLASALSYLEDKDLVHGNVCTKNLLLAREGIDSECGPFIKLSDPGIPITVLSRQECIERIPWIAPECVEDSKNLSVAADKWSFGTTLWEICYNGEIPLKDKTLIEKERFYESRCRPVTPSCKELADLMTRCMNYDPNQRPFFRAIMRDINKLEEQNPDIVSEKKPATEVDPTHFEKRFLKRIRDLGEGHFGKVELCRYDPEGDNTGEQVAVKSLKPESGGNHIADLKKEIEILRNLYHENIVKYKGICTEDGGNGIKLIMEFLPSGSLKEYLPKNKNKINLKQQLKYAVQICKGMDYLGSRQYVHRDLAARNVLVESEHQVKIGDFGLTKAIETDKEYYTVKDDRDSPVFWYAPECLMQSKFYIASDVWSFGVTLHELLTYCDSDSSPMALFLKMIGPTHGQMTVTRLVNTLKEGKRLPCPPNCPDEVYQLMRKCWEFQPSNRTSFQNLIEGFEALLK
Chain of UniProt Q68D91 (whole entry, looked up): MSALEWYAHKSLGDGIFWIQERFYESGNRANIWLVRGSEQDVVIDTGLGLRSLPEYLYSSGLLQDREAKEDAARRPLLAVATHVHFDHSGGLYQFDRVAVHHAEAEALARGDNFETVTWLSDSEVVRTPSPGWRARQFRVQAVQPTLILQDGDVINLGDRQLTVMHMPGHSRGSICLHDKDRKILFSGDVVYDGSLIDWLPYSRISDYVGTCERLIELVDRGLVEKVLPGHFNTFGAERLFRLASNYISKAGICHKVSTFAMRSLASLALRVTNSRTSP
Chain of UniProt P08191 (whole entry, looked up): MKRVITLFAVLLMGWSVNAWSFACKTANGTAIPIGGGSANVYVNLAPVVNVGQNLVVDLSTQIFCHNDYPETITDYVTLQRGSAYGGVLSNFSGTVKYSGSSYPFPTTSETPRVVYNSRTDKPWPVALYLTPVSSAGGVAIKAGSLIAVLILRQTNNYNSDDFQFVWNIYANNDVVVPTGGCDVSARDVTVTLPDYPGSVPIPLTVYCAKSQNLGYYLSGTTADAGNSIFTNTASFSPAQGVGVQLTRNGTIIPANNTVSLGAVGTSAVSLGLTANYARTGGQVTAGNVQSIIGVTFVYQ
Chain of UniProt P42858 (97-2069, looked up): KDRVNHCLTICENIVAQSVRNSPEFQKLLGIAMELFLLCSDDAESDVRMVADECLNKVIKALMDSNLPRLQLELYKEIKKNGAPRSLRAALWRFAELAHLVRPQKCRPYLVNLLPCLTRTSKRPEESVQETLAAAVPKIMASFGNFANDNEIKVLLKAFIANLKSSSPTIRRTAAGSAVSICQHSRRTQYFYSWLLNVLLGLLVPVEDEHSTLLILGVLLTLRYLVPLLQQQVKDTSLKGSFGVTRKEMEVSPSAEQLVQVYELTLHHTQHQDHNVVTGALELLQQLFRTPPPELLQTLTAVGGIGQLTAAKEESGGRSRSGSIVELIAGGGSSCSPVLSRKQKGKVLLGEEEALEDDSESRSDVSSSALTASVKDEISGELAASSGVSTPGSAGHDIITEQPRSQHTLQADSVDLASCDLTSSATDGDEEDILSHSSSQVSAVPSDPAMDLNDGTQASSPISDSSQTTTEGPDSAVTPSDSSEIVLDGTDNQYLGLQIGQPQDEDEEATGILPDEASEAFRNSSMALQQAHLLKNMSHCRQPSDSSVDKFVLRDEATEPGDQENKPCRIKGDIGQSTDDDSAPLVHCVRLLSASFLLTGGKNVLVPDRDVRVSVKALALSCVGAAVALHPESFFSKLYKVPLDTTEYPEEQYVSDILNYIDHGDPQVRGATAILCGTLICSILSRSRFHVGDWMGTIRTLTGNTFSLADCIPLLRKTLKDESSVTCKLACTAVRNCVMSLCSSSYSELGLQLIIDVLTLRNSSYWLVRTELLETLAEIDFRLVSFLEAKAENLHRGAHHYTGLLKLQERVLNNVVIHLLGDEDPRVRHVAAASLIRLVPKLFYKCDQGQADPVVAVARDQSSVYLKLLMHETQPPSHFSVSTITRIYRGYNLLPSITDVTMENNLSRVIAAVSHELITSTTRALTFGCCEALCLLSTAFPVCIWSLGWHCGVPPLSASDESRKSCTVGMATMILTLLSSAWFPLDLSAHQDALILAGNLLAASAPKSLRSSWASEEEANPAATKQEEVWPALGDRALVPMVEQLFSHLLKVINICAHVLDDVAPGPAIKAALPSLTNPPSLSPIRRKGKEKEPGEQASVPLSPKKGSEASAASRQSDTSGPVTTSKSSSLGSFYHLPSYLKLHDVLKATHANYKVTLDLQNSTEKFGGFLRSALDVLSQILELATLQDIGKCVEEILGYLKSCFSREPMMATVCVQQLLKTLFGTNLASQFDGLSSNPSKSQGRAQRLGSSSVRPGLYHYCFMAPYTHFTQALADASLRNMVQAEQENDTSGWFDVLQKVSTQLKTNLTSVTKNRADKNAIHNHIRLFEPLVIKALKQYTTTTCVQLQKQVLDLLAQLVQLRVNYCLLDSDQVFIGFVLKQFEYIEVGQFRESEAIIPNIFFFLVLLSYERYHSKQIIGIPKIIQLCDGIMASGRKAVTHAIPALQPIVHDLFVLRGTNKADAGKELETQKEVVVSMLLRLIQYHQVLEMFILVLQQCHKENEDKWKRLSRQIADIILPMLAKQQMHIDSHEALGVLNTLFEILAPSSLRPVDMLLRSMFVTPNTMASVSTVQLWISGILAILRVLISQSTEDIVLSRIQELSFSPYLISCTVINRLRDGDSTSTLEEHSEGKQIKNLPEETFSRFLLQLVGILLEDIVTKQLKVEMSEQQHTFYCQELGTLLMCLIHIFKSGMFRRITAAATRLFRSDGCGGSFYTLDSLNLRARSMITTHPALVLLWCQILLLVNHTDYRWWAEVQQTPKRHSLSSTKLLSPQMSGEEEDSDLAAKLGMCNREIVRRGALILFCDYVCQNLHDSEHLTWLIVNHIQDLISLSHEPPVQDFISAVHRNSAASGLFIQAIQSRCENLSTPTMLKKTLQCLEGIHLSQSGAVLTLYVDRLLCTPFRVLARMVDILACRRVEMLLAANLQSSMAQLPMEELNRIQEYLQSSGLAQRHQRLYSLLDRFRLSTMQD
Chain of UniProt Q01338 (whole entry, looked up): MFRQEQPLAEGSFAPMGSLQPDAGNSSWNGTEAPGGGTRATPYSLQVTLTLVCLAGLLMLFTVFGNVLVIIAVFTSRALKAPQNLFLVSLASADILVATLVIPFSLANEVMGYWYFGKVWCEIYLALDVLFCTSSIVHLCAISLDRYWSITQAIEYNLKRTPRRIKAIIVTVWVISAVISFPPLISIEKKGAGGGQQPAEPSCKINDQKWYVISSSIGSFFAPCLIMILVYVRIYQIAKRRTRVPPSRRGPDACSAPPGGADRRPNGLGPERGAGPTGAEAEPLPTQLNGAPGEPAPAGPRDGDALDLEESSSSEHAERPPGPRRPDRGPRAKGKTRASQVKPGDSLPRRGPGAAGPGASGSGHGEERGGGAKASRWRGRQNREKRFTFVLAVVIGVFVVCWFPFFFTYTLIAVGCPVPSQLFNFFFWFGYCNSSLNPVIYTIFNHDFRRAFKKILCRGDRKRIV

| Structure (SMILES) | tested on | test | test system | conditions | scale | quantity | result |
| --- | --- | --- | --- | --- | --- | --- | --- |
| CCc1cc(NC)ncc1C(N)=O | NNMT SAM-bound | substrate, SPR |  | 20 °C, added: SAM |  | Kd | 50100 nM |
| CCCC[C@@H]1NC(=O)[C@H](Cc2ccc(O)cc2)NC(=O)[C@@H]2CCCN2C(=O)[C@H](CC(=O)O)NC(=O)[C@H](C)NC(=O)[C@H](Cc2ccccc2)NC(=O)[C@@H]2CSCCC(=O)N3CN(CN(C3)C(=O)CCSC[C@@H](C(=O)N[C@@H](C)C(N)=O)NC1=O)C(=O)CCSC[C@H](NC(=O)[C@H](C)NC(C)=O)C(=O)N[C@@H](CC(C)(C)C)C(=O)N1CCC[C@H]1C(=O)N[C@@H](CCC(=O)O)C(=O)N[C@H](C)C(=O)N1CCC[C@H]1C(=O)N[C@@H](Cc1ccc(O)cc1)C(=O)N2 | Tumor necrosis factor receptor superfamily member 9 (Homo sapiens, UniProt Q07011) | binding, SPR |  |  |  | Kd | 4.4 nM |
| CCc1nc2cc3ccccc3cc2cc1C(=O)N1CCC[C@H]1C(=O)N[C@@H](C/C=C/C[C@H](NC(=O)[C@@H]1CCCN1C(=O)c1cc2cc3ccccc3cc2nc1CC)C(=O)N[C@@H](CCCCN)C(=O)NCCCN)C(=O)N[C@@H](CCCCN)C(=O)NCCCN | HIV-1 frameshift site RNA | SPR |  |  |  | Kd | 795 nM |
| CC[C@H](C)[C@@H]1NC(=O)[C@H](Cc2c[nH]c3ccccc23)NC(=O)[C@@H]2CCCN2C(=O)[C@H](C)NC(=O)[C@H](C(C)C)NC(=O)[C@H](CCC(N)=O)NC(=O)[C@H](Cc2ccccc2)NC(=O)[C@H](Cc2c[nH]cn2)NC(=O)[C@H]([C@@H](C)O)NC(=O)[C@H](Cc2ccc(O)cc2)NC(=O)CSC[C@@H](C(N)=O)NC(=O)[C@H](CC(C)C)NC(=O)[C@H](CO)NC(=O)[C@H](CCC(N)=O)NC1=O | Huntingtin, residues 97-2069 (HTT, Homo sapiens, UniProt P42858) | binding, fluorescence polarization |  | N-terminal domain |  | Kd | 73 nM |
| O=C(O)CN(CCOCCOCCN(CC(=O)O)CC(=O)O)CC(=O)O | calcium ion | isothermal titration calorimetry |  |  |  | Kd | < 100 nM |
| Cc1c[nH]c2nccc(-c3ccc(C(=O)N[C@@H]4c5c(F)cc(C(F)F)cc5C[C@@H]4O)cn3)c12 | Tyrosine-protein kinase JAK1, JH2 (JAK1, Homo sapiens, UniProt P23458) | binding, competition with immobilised ligand |  |  |  | Kd | 2300 nM |
| Cc1nn(-c2cccc(N)c2)c(=O)c2cnc(Nc3ccc(N4CCNCC4)cc3)nc12 | Serine/threonine-protein kinase 3 (STK3, Homo sapiens, UniProt Q13188) | enzyme activity, inhibitor |  |  |  | IC50 | > 10 µM |
| COC1CN([C@H]2CC[C@H]([C@@]3(C)Oc4c(Cl)cc(C(=O)NCc5c(SC)cc(C)[nH]c5=O)c(C)c4O3)CC2)C1 |  | RNA-seq, item: PHLPP1 mouse homolog | mouse, HT-1376 xenograft, whole blood | dose not given | reference: vehicle | log2 fold change | 0.74 |
| COC1(C2=NCCN2)COc2ccccc2O1 (stereo not drawn) | Alpha-2A adrenergic receptor (Adra2a, Mus musculus, UniProt Q01338) | [3H]compound saturation binding | HEK293 membranes, HA-tagged receptor |  |  | Kd | 3.43 ± 0.58 nM |
| C=CC(=O)Nc1cccc(Cn2ncc3cnc(Nc4cnn(CCOC)c4)nc32)c1 | MAP4K5 human | binding, KINOMEscan |  | 100 nM | lower = stronger binding | percent of control | 93% |
| CC(/C=C/C(=O)NO)=C\[C@@H](C)C(=O)c1ccc(N(C)C)cc1 | MBLAC2 (Homo sapiens, UniProt Q68D91) | inhibitor, competition pulldown | SW620 and MV4-11 lysate | 1 h |  | Kd | 1190 nM |
| CCCCCCCO[C@H]1CO[C@H](CO)[C@@H](O)[C@H](O)[C@@H]1O | Type 1 fimbrin D-mannose specific adhesin, lectin domain (fimH, Escherichia coli K-12, UniProt P08191) | binding, isothermal titration calorimetry |  | 37 °C, global fit, two runs |  | Kd | 661 nM |
| C=C(NC(=O)c1csc(-c2nc3c(cc2O)-c2nc(cs2)C(=O)NC(C(C)O)C(=O)NC(=C(C)OC)c2nc(cs2)C(=O)NC2c4nc(cs4)C(=O)NC(COC(=O)c4c5c6c(cccc6n4O)COC(=O)C(OC4CC(C)(O)C(N(C)C)C(C)O4)C2OC5)c2nc-3cs2)n1)C(N)=O (stereo not drawn) |  |  | cynomolgus monkey, female, plasma | intravenous infusion, 3 mg/kg, multiple doses, day 7 |  | Vz/F | 1050 mL/kg |
| C=CC(=O)N1C[C@H](C)N(c2nc(OC[C@@]34CCCN3C[C@H](F)C4)nc3c(F)c(-c4ccc(F)c5sc(N)c(C#N)c45)c(C(F)(F)F)cc23)C[C@H]1C | GTPase KRas, GppNHp-bound (KRAS, Homo sapiens, UniProt P01116, G12D) |  |  |  |  | Kd | 7200 nM and 7250 nM |
| Nc1ncc(-c2cc(-c3cnn(CC(F)(F)F)c3)ncc2F)nc1C(=O)NC1CNCC(F)C1 (stereo not drawn) | PIK3C2B | KINOMEscan |  | 1 µM | reference: DMSO control | remaining binding | 71% |
| COc1cccc2c(=O)c(CO)coc12 | NNMT SAM-bound | SPR/GCI |  | added: SAM |  | Kd | 3160 nM |
| Cc1ncsc1-c1ccc(C(C)NC(=O)C2CC(O)CN2C(=O)C(NC(=O)CCCCCCCCCCN2CCCC(Nc3ncc(Cl)c(Nc4ccccc4S(=O)(=O)C(C)C)n3)C2)C(C)(C)C)cc1 (stereo not drawn) | 22Rv1 | RNA-seq, item: ULBP1 mRNA |  | concentration not given | reference: DMSO | log2 fold change | -1.91 |
| NCCCC[C@H](NC(=O)[C@H](C/C=C\C[C@H](NC(=O)[C@@H]1CCCN1)C(=O)N[C@@H](CCCCN)C(=O)NCCCN)NC(=O)[C@@H]1CCCN1)C(=O)NCCCN | HIV-1 frameshift site RNA | SPR |  |  |  | Kd | 117 nM |

For quick reference, copied from above:
| Structure (SMILES) | tested on | test | test system | conditions | scale | quantity | result |
| --- | --- | --- | --- | --- | --- | --- | --- |
| COC1(C2=NCCN2)COc2ccccc2O1 (stereo not drawn) | Alpha-2A adrenergic receptor (Adra2a, Mus musculus, UniProt Q01338) | [3H]compound saturation binding | HEK293 membranes, HA-tagged receptor |  |  | Kd | 3.43 ± 0.58 nM |
